Measurements of several laboratories.
Parts stem from different laboratories: compare values within a part only. Positions count from the first letter of the parent shown.
Chain of UniProt Q9BYP7 (whole entry, looked up): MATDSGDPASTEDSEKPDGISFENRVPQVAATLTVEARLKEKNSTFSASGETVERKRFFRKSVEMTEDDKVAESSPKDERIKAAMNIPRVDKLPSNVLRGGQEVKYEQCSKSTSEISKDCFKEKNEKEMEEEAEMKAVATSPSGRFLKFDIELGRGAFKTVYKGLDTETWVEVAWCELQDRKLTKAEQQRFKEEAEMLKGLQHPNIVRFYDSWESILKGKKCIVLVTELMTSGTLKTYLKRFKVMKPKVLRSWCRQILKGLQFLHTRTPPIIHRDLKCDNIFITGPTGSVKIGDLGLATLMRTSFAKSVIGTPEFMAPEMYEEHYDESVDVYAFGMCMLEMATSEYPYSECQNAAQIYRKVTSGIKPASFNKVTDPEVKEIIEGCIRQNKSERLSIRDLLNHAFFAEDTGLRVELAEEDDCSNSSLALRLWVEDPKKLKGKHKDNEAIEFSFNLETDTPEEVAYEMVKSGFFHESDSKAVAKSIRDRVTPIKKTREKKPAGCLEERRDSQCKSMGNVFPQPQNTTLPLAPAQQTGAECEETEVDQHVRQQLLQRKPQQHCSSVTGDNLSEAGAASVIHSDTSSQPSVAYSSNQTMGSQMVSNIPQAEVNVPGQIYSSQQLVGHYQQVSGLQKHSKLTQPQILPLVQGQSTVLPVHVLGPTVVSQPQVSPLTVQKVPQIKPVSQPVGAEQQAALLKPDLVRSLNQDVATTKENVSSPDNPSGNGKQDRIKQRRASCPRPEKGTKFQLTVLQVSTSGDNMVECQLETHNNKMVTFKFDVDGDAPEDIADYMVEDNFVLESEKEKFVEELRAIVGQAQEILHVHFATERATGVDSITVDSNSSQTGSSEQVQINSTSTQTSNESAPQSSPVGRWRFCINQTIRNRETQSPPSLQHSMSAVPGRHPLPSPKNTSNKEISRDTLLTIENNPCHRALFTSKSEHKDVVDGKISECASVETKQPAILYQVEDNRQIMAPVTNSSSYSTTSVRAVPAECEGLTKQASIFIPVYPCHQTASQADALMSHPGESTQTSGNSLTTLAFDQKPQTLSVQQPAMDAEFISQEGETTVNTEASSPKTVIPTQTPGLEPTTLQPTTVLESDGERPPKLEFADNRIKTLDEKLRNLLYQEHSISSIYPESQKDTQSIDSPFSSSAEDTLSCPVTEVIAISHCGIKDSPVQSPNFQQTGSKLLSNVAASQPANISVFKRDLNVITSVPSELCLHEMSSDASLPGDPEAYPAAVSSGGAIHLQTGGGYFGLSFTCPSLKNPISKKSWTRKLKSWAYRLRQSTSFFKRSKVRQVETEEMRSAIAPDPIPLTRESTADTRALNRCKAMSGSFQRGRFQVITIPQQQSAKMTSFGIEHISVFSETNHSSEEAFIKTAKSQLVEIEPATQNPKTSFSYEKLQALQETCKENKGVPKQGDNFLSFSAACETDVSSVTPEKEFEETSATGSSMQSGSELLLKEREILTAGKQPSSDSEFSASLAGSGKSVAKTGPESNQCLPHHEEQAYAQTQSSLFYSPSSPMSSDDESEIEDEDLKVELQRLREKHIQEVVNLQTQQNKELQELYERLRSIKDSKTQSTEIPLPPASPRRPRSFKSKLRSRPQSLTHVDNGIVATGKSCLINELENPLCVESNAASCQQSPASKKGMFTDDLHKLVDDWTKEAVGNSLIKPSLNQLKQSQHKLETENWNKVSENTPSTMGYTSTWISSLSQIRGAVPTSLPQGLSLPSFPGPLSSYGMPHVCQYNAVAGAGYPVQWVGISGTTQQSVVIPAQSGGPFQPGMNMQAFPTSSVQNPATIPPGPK
Chain of UniProt P51451 (whole entry, looked up): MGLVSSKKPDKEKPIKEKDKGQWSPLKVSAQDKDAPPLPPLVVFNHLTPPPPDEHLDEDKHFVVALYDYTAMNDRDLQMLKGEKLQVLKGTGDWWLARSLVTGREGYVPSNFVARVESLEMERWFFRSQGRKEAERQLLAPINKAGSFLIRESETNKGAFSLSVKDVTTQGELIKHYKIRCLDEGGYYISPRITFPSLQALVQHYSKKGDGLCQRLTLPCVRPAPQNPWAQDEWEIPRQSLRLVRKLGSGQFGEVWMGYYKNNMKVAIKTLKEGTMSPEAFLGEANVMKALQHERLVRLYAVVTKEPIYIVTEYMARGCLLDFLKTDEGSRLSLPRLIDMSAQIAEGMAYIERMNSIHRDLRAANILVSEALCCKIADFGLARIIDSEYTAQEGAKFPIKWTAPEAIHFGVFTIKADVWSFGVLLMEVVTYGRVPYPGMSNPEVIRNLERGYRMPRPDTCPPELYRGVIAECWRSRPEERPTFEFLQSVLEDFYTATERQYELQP
Chain of UniProt P29597 (whole entry, looked up): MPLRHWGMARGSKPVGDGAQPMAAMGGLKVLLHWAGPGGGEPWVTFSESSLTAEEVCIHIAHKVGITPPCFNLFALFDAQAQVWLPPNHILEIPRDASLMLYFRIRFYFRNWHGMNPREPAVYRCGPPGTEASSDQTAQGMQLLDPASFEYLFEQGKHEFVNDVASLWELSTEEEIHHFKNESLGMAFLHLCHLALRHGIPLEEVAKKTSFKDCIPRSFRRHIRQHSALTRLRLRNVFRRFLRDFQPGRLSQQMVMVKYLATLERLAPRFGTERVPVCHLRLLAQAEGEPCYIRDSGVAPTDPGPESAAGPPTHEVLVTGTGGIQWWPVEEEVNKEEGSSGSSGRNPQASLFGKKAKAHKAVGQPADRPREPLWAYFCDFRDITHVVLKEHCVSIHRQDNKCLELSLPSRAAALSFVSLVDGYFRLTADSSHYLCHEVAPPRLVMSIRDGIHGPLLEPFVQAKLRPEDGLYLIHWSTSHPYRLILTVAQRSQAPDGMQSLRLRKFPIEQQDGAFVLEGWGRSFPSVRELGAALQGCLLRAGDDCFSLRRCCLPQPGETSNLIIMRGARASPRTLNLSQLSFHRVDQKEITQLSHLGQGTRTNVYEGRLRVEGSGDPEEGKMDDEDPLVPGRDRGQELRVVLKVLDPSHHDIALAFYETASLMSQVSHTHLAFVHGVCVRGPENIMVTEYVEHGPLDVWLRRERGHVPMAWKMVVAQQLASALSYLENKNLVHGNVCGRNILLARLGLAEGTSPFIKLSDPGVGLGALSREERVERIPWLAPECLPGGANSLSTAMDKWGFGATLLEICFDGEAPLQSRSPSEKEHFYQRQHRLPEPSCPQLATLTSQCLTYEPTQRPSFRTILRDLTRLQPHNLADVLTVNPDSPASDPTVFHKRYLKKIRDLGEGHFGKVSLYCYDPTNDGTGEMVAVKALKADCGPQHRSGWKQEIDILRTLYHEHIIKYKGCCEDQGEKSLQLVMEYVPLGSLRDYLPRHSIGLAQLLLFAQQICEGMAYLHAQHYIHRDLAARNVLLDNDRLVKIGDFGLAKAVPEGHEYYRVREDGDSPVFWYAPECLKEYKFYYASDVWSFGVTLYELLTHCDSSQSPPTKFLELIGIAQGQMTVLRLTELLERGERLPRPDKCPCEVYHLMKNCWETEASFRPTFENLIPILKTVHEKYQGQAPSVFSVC
Chain of UniProt O75460 (whole entry, looked up): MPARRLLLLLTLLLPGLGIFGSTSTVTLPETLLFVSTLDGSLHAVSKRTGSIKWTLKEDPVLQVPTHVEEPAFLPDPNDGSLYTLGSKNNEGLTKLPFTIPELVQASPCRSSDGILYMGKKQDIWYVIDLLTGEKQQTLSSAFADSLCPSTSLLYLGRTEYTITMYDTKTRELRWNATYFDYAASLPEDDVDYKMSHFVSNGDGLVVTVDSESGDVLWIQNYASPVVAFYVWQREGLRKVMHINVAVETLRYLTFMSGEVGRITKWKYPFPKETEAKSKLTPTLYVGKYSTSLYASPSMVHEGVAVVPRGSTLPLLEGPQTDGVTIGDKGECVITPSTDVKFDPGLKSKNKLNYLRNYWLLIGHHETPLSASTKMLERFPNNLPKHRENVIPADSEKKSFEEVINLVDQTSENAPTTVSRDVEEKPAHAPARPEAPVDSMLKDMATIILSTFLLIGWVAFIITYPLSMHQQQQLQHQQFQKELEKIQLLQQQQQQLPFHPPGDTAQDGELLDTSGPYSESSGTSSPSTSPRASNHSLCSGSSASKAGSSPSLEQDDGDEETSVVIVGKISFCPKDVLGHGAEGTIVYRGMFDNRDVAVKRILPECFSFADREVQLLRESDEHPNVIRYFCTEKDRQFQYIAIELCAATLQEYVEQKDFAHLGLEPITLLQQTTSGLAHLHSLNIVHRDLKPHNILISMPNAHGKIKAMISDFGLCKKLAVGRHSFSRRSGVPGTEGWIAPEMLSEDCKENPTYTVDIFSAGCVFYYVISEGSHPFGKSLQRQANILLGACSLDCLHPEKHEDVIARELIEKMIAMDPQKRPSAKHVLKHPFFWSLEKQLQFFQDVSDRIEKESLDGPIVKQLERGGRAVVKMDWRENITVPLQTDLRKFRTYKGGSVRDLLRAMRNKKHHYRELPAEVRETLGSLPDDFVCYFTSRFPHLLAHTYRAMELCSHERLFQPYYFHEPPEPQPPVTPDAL
Chain of UniProt P06493 (whole entry, looked up): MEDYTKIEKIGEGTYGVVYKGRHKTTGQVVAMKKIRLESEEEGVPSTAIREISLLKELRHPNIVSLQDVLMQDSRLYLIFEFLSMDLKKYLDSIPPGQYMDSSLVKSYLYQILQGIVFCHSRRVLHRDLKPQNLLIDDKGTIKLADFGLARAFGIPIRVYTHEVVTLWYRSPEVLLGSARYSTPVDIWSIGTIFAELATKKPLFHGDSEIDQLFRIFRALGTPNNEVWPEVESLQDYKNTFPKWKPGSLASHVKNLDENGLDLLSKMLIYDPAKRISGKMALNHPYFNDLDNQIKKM
Chain of UniProt Q8N752 (whole entry, looked up): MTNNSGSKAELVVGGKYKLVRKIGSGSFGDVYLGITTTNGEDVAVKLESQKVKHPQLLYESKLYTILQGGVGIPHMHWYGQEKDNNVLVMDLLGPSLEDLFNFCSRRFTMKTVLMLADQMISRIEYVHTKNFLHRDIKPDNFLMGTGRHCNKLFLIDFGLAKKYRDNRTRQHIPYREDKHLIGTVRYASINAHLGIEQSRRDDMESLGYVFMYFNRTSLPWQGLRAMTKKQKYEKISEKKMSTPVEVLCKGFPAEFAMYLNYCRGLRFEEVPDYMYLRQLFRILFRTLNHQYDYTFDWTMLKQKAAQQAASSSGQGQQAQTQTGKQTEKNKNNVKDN

Series 1
Target: CCNA1, cyclin fold, Cln2 fusion (human)
Method: yeast growth competition, sequencing
Medium: yeast
Notes: strong parent motif
Reference: not given
Reading: higher = stronger binding
Starting sequence: E2F1 docking peptide (human); PPVKRRLDFETDH
Change | normalised enrichment score
PPVKRVLDFETDH [R6V] | 1.11
PPVKDRLDFETDH [R5D] | 0.217
PPVKRRLLFETDH [D8L] | 1.41
PRVKRRLDFETDH [P2R] | 2.05
PPVKRRNDFETDH [L7N] | 0.00935
PPVKRMLDFETDH [R6M] | 1.3
PPVRRRLDFETDH [K4R] | 1.56
PPVKRRLPFETDH [D8P] | 1.26

Series 2
SMILES: CC(=O)N1CCC(c2ccc(C(=O)NC(=N)N)cc2C(F)(F)F)CC1
Observed: cell-free assay
Method: competition with immobilised ligand
Concentration: 1 µM
target | remaining binding [%]
Serine/threonine-protein kinase D3 (PRKD3, Homo sapiens, UniProt O94806) | 80
Serine/threonine-protein kinase/endoribonuclease IRE1 (ERN1, Homo sapiens, UniProt O75460) | 100
Fibroblast growth factor receptor 1 (FGFR1, Homo sapiens, UniProt P11362) | 100
Epidermal growth factor receptor (EGFR, Homo sapiens, UniProt P00533, L858R) | 100
Serine/threonine-protein kinase haspin (HASPIN, Homo sapiens, UniProt Q8TF76) | 100
Non-receptor tyrosine-protein kinase TYK2, JH1 (TYK2, Homo sapiens, UniProt P29597) | 100
Cyclin-dependent kinase 13 (CDK13, Homo sapiens, UniProt Q14004) | 100
Epidermal growth factor receptor (EGFR, Homo sapiens, UniProt P00533, del746-750) | 100
Casein kinase I isoform alpha-like (CSNK1A1L, Homo sapiens, UniProt Q8N752) | 100
Serine/threonine-protein kinase TAO3 (TAOK3, Homo sapiens, UniProt Q9H2K8) | 86
Serine/threonine-protein kinase WNK3 (WNK3, Homo sapiens, UniProt Q9BYP7) | 84
LIM domain kinase 2 (LIMK2, Homo sapiens, UniProt P53671) | 91
Epidermal growth factor receptor (EGFR, Homo sapiens, UniProt P00533, T790M) | 100
Serine/threonine-protein kinase MRCK beta (CDC42BPB, Homo sapiens, UniProt Q9Y5S2) | 100
Casein kinase I isoform delta (CSNK1D, Homo sapiens, UniProt P48730) | 100
Ribosomal protein S6 kinase alpha-4, N-terminal kinase domain (RPS6KA4, Homo sapiens, UniProt O75676) | 100
Serine/threonine-protein kinase PLK1 (PLK1, Homo sapiens, UniProt P53350) | 90

Series 3
Compound: Cn1cnc2cc3c(Nc4cccc(Br)c4)ncnc3cc21
Observed: enzyme activity
Mode: inhibitor
Concentration: 0.5 µM
Reference: control
target | remaining activity
Ribosomal protein S6 kinase alpha-6 (RPS6KA6, Homo sapiens, UniProt Q9UK32) | 92.5%
Serine/threonine-protein kinase WNK3 (WNK3, Homo sapiens, UniProt Q9BYP7) | 95.8%
3-phosphoinositide-dependent protein kinase 1 (PDPK1, Homo sapiens, UniProt O15530) | 98.8%
Homeodomain-interacting protein kinase 2 (HIPK2, Homo sapiens, UniProt Q9H2X6) | 106%
Calcium/calmodulin-dependent protein kinase type II subunit beta (CAMK2B, Homo sapiens, UniProt Q13554) | 102%
Ribosomal protein S6 kinase alpha-5 (RPS6KA5, Homo sapiens, UniProt O75582) | 93.5%
Cyclin-dependent kinase 1, with cyclin B (CDK1, Homo sapiens, UniProt P06493) | 97.9%
Tyrosine-protein kinase Srms (SRMS, Homo sapiens, UniProt Q9H3Y6) | 84%
Tyrosine-protein kinase Blk (BLK, Homo sapiens, UniProt P51451) | 81%
Ephrin type-B receptor 1 (EPHB1, Homo sapiens, UniProt P54762) | 72.2%

Series 4
Target: CREM, bZIP domain (human)
Method: DHFR protein complementation
Medium: yeast
Notes: single substitutions, most at no-binding floor
Reference: wild-type JUN-FOS pair
Reading: higher = stronger binding
Starting sequence: JUN, bZIP domain (human); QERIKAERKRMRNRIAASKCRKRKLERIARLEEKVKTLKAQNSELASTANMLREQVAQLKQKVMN; partner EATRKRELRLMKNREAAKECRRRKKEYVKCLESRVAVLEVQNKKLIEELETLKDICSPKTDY
Change | binding fitness [natural log]
L45N | -1.52
Q55Y | -1.54
N42D | -1.45
E32L | -1.48
L31W | -1.42
E54N | -1.49
K34R | -1.25
R30S | -1.41

Repeated from above (series 3):
target | remaining activity
Cyclin-dependent kinase 1, with cyclin B (CDK1, Homo sapiens, UniProt P06493) | 97.9%
Tyrosine-protein kinase Srms (SRMS, Homo sapiens, UniProt Q9H3Y6) | 84%
Tyrosine-protein kinase Blk (BLK, Homo sapiens, UniProt P51451) | 81%
Ephrin type-B receptor 1 (EPHB1, Homo sapiens, UniProt P54762) | 72.2%
